Experimental data gathered from unrelated publications.
Lines come from different studies, so protocols differ. Numbers after ± are the reported error.

Fc1cc(-c2nc3ccccc3[nH]2)ccc1OCCN1CCOCC1 gave an IC50 of greater than 100 µM (Z-138; cell growth or viability, MTS; 72 h).
CSc1nc(NC(=O)C(=NNc2ccc(S(=O)(=O)Nc3ncccn3)cc2)C(C)=O)cc(N)c1C#N has an IC50 of 6.15 µM (A-431; cell growth or viability, MTT; 48 h).
With CC(=O)c1c(O)cc(O)cc1O[C@@H]1O[C@H](CO)[C@@H](O)[C@H](O)[C@H]1O the IC50 was greater than 100 µM (Hepa-1c1c7; cell growth or viability).
The IC50 of CC(=O)C(=NNc1ccc(S(=O)(=O)Nc2ncccn2)cc1)C(=O)c1ccccc1 is reported as 4.78 to 7.56 µM (A-431; cell growth or viability, MTT; 48 h).
CO[C@@]12[C@H](COC(N)=O)C3=C(C(=O)C(C)=C(N)C3=O)N1C[C@@H]1N[C@@H]12 gave an IC50 of 6.23 µg/mL (HCT-15/ADM2; cell growth, XTT; 72 h).
CC(=O)C1=CC[C@H]2[C@]3(C)CC[C@H]4C(C)(C)CCC[C@]4(CO)[C@H]3C[C@H](O)[C@]2(C)[C@H]1C=O gave an IC50 of 2.6 µM (T47D; luciferase reporter gene; 16 h, hypoxia 1% O2, with: pGL3-Control construct).
The IC50 of CC(C)C[C@H](NC(=O)C(CSc1c(F)c(F)c(F)c(F)c1F)NC(=O)[C@@H](NC(=O)Cc1c(F)c(F)c(F)c(F)c1F)C(C)C)C(=O)[C@@]1(C)CO1 (stereo in doubt) is reported as 0.723 µM (NCI-H460; cell growth or viability).
O=c1[nH]c2ccccc2nc1/C=C/c1ccco1 gave an IC50 of 9.56 µM (B16-F10; cell growth or viability, MTT; 72 h).
CC(C)C[C@H](NC(=O)[C@@H](NC(=O)[C@@H]1CCCN1C(=O)[C@@H](NC(=O)[C@H](CO)NC(=O)[C@@H](NC(=O)[C@H](CCC(N)=O)NC(=O)[C@@H]1CCCN1C(=O)[C@@H](NC(=O)[C@H](CCCCN)NC(=O)[C@H](CCCCN)NC(=O)[C@@H](NC(=O)[C@H](Cc1ccc(O)cc1)NC(=O)[C@H](CCCNC(=N)N)NC(=O)[C@@H](NC(=O)[C@@H](N)CC(C)C)C(C)C)[C@@H](C)O)C(C)C)C(C)C)[C@@H](C)O)[C@@H](C)O)C(=O)O gave an IC50 of greater than 100 µM (SUP-T1; ERK phosphorylation, inhibitor, phosphoflow cytometry; with: CXCL12 100 ng/mL, 2 min).
The IC50 of O=c1[nH]c2ccccc2nc1/C=C/c1ccc(C(F)(F)F)cc1 is reported as greater than 50 µM (NCI-H460; cell growth or viability, MTT; 72 h).
O[C@H]1[C@H]2c3cc4c(cc3CN3CCC(=C[C@@H]1Cl)[C@H]23)OCO4 has an IC50 of 14.8 µM (SK-MEL-28; cell growth or viability, MTT; 72 h).
Cn1cc(Nc2nccc(-c3ccc4c(c3)CN(C3COC3)CC[C@H]4NC(=O)c3cn(C(C)(C)C)nn3)n2)cn1 gave an IC50 of 0.106 ± 0.07 µM (CD19+ B cells; CD69 expression; human whole blood; healthy donors, with: anti-IgD).
For Cc1ccc(NC(=O)c2ccc3c(c2)CC[C@@H]3N2CCN(C)CC2)cc1C#Cc1cnc2ccc(Cl)nn12, the IC50 was roughly 0.001 µM (KU812; cell growth or viability; 72 h).
The IC50 of Fc1ccc2nc(-c3ccc(OCc4cn(CCN5CCOCC5)nn4)c(F)c3)[nH]c2c1 is reported as 65.4 µM (Z-138; cell growth or viability, MTS; 72 h).
Nc1nc2[nH]c(CCCc3ccc(C(=O)N[C@@H](CCCC(=O)O)C(=O)O)s3)cc2c(=O)[nH]1 has an IC50 of greater than 1 µM (CHO RT16 (human FRα); cell growth; with: folic acid 200 nM).
CCN(CC)CCOc1ccc(-c2nc3ccc(Cl)cc3[nH]2)cc1 gave an IC50 of 9.4 µM (Z-138; cell growth or viability, MTS; 72 h).
O=C(CC1NCCCC1O)Cn1cnc2cc(Br)c(Cl)cc2c1=O (stereo not shown) — result for IC50: “increased” (mouse CD4+ CD25- T cells; Th17 differentiation; with: increasing proline).
CCCS(=O)(=O)Nc1ccc(F)c(C(=O)c2c[nH]c3ncc(-c4ccc(Cl)cc4)cc23)c1F has an IC50 of 0.1 to 0.3 µM (A-375 inducible BRAF V600E modest; ERK signalling, Western blot; 1 h, with: 0.02 µg/mL doxycycline).
COc1c(-c2ccc(O)c(O)c2)oc2cc(O)cc(OC)c2c1=O has an IC50 of greater than 100 µM (Hepa-1c1c7; cell growth or viability).
Cc1ccc2nc(NC(=O)Cn3cc(COc4ccc(/C=N/NC(=O)c5ccncc5)cc4)nn3)sc2c1 gave an IC50 of 101 µM (T47D; cell growth or viability, MTT; 48 h).
The IC50 of O=C1Nc2ccccc2C1=Cc1cc2cc(Cl)ccc2nc1Cl is reported as 48.8 µM (OV2008; cell viability, MTT; 72 h).
CC(=O)Nc1ccc(O)cc1 has an IC50 of 2450 µM (ReNcell VM; cell viability, live/dead 3D alginate microarray; 24 h exposure plus 48 h).
O=c1[nH]c2ccccc2nc1/C=C/c1ccc2ccccc2c1 gave an IC50 of 7.09 µM (B16-F10; cell growth or viability, MTT; 72 h).
For C=C1C(=O)O[C@@H]2/C=C(\C)CC/C=C(\C)CC[C@@H]12, the IC50 was 17.1 ± 0.9 µM (NCI/ADR-RES; cell growth, inhibitor, Alamar blue).
The IC50 of CCC(CC)c1cccc(C(CC)CC)c1-n1ccn(-c2c(C(CC)CC)cccc2C(CC)CC)[c]1=[Au][Se]c1ccccc1 is reported as greater than 100 µM (Vero E6; cytotoxicity, crystal violet staining; 96 h).
O=c1[nH]c2ccccc2nc1/C=C/c1ccccc1F has an IC50 of greater than 50 µM (NCI-H460; cell growth or viability, MTT; 72 h).
With COc1cc(OC)c(Cl)c(NC(=O)N(C)c2cc(Nc3ccc(N4CCN(CC(=O)N[C@H](C(=O)N5C[C@H](O)C[C@H]5C(=O)N[C@@H](C)c5ccc(-c6scnc6C)cc5)C(C)(C)C)CC4)cc3)ncn2)c1Cl the IC50 was 0.001 µM (KATO III; cell growth or viability, ATP luminescence; 72 h).
Fc1ccccc1/C=C/c1nc2ccccc2nc1Cl has an IC50 of 34 µM (NCI-H460; cell growth or viability, MTT; 72 h).
O=C(O)c1cc(O)c2c(c1)C(=O)c1cccc(O)c1C2=O has an IC50 of 277 µM (Jurkat; cell growth or viability, ATP luminescence; 24 h).
With Cc1ccc(C(C)C)cc1.Cc1ccc(C(C)C)cc1.[Cl][Ru][Cl].[Cl][Ru][Cl] the IC50 was 243 µM (L929; cell growth or viability, trypan blue; 48 h).
Cn1c(=O)c(/C=C/c2ccccc2Cl)nc2ccccc21 has an IC50 of 1.08 µM (NCI-H460; cell growth or viability, MTT; 72 h).
The IC50 of C[C@]12CC[C@@H]3c4ccc(O)cc4CC[C@H]3[C@@H]1CC[C@@H]2O is reported as 0.0046 µM (GPER-transduced Sf9; ERK phosphorylation, inhibitor, immunoblotting; 15 min).
With CCCn1cnc2ccc(-c3ccc4sc(NC(=O)Nc5ccc(F)cc5)nc4c3)cc2c1=O the IC50 was 2.9 µM (BEAS-2B; cell growth or viability, MTT; 72 h).
C=CC(=O)Nc1cc(Nc2nccc(-c3cn(C)c4ccccc34)n2)c(OC)cc1N(C)CCN(C)C gave an IC50 of 2.6 µM (NCI-H1975 resistant to compound).
For O=C(Cn1cc(COc2ccc(/C=N/NC(=O)c3ccccc3)cc2)nn1)Nc1nc2ccccc2s1, the IC50 was 13 µM (T47D; cell viability, MTT; 48 h).
O=c1[nH]c2ccccc2nc1/C=C/c1ccccc1 gave an IC50 of 4.27 µM (B16-F10; cell growth or viability, MTT; 72 h).
The IC50 of Fc1cc(-c2nc3ccccc3[nH]2)ccc1OCc1cn(CCN2CCOCC2)nn1 is reported as 45.7 µM (Z-138; cell growth or viability, MTS; 72 h).
The IC50 of CC(C(=O)[O-])C(=O)[O-].CC(C(=O)[O-])C(=O)[O-].NCCN.[Pt+4] is reported as 202 ± 5 µM (CH1; cell viability, MTT; 96 h).
CC(C)=CCC/C(C)=C/COc1ccc2ccc(=O)oc2c1 gave an IC50 of 25.3 ± 0.42 µM (COLO 320 multidrug-resistant; cell growth, MTT; 72 h).
The IC50 of CS(=O)(=O)CCNCc1ccc(-c2ccc3ncnc(Nc4ccc(OCc5cccc(F)c5)c(Cl)c4)c3c2)o1 is reported as 0.449 ± 0.0366 µM (NCI-N87; cell growth, inhibitor; 0.08% alpha1-acid glycoprotein).
The IC50 of Cc1cc(O)cc2c1OC(C)(CCCC(C)CCCC(C)CCCC(C)C(=O)O)CC2 (stereo not shown) is reported as 11 µM (differentiated HL-60; LTB4 formation; 10 min pre-incubation, with: thapsigargin).
For C=CCN1c2cccnc2Sc2cccnc21, the IC50 was roughly 20 µg/mL (SNB-19; cell growth or viability, WST-1; 72 h).
The IC50 of `[Au(PPh3)SePh]` is reported as 1.9 ± 0.3 µM (Vero E6; cytotoxicity, crystal violet staining; 96 h).
COc1cc(C(=O)c2cn(Cc3ccccc3)c(-c3ccc(C)cc3)n2)cc(OC)c1OC gave an IC50 of 0.94 µM (A-375, WM164, LNCaP, PC-3, DU-145, PPC-1; cell growth).
CCn1c(-c2cccnc2[C@H](C)OC)c2c3cc(ccc31)-c1cccc(c1)C[C@H](NC(=O)[C@H](C(C)C)N1CC[C@]3(CCN(C(=O)C#CC(C)(C)N(C)C)C3)C1=O)C(=O)N1CCC[C@H](N1)C(=O)OCC(C)(C)C2 has an IC50 of 0.00028 µM (KRAS G12C mutant cell lines; cell growth, 3D CellTiter-Glo; 120 h).
With Cn1c(=O)c(/C=C/c2ccccc2)nc2ccccc21 the IC50 was 0.79 µM (B16-F10; cell growth or viability, MTT; 72 h).
The IC50 of Fc1cc(-c2nc3ccc(Cl)cc3[nH]2)ccc1OCc1cn(CCN2CCOCC2)nn1 is reported as greater than 100 µM (Z-138; cell growth or viability, MTS; 72 h).
For Cc1cc(C)n(C(C(=O)OC(C)C)n2nc(C)cc2C)n1, the IC50 was greater than 50 µM (LoVo OXP, oxaliplatin-resistant; MTT; 72 h).
For CCOc1cc2ncc(C#N)c(Nc3ccc(OCc4ccccn4)c(Cl)c3)c2cc1NC(=O)/C=C/CN(C)C, the IC50 was 0.228 µM (A-431; cell growth or viability, ATP luminescence; 72 h).
CC(=O)O[C@H]1C(=O)[C@@]2(C)[C@H]([C@H](OC(=O)c3ccccc3)[C@]3(O)C[C@H](OC(=O)[C@H](O)[C@@H](NC(=O)c4ccccc4)c4ccccc4)C(C)=C1C3(C)C)[C@]1(OC(C)=O)CO[C@@H]1C[C@@H]2O has an IC50 of 0.015 µM (NCI-H2009; cell viability; 10 min exposure, 120 h recovery).
Cc1ccc2nc(NC(=O)Cn3cc(COc4ccc(/C=N\NC(N)=S)cc4)nn3)sc2c1 gave an IC50 of 119 µM (T47D; cell growth or viability, MTT; 48 h).
For CC(=O)C(=O)O, the IC50 was 540 ± 80 µM (QGP-1; glucose-induced ECAR; 20 min).
